Measured values of several laboratories.
A part holds a random share of what one study measured.
Chain of UniProt P06239 (whole entry, looked up): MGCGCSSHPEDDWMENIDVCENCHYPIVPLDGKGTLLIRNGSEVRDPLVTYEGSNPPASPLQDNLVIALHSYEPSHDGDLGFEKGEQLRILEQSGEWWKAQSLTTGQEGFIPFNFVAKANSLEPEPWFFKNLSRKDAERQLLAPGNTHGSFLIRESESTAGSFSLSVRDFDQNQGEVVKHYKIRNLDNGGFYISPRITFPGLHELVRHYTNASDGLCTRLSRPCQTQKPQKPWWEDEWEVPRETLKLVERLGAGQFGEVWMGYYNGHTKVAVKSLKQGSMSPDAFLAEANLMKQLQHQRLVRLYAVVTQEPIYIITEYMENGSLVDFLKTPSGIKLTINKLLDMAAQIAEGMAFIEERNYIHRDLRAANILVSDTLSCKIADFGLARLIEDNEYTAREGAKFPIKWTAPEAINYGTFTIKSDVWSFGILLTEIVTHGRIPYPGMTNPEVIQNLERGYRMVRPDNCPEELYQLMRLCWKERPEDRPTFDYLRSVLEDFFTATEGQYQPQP
Chain of UniProt Q15375 (whole entry, looked up): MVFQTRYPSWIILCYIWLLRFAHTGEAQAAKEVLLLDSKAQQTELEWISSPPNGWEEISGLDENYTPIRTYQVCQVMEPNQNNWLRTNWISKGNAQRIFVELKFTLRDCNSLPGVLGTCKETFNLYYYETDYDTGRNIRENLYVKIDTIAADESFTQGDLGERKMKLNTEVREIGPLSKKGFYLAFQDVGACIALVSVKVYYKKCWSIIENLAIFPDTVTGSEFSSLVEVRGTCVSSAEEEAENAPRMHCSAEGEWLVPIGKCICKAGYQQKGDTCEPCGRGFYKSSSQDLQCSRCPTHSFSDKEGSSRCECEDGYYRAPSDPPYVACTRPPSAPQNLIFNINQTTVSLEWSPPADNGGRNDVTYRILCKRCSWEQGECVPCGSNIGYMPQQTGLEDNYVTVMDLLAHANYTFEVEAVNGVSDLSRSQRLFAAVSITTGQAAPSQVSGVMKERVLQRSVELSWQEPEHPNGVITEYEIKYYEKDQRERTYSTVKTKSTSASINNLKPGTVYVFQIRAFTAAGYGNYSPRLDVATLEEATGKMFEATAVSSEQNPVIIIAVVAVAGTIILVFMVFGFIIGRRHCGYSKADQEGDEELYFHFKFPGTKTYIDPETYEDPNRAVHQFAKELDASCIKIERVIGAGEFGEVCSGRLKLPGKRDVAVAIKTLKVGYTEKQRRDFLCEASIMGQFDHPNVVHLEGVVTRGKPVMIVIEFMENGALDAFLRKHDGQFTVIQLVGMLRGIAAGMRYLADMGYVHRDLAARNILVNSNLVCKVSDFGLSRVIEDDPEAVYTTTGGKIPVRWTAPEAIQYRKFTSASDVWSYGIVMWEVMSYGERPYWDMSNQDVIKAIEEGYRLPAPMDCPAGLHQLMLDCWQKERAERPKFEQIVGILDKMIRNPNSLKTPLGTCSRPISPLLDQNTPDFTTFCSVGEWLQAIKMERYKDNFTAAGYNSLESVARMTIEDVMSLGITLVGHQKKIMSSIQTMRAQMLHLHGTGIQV
Chain of UniProt P10398 (whole entry, looked up): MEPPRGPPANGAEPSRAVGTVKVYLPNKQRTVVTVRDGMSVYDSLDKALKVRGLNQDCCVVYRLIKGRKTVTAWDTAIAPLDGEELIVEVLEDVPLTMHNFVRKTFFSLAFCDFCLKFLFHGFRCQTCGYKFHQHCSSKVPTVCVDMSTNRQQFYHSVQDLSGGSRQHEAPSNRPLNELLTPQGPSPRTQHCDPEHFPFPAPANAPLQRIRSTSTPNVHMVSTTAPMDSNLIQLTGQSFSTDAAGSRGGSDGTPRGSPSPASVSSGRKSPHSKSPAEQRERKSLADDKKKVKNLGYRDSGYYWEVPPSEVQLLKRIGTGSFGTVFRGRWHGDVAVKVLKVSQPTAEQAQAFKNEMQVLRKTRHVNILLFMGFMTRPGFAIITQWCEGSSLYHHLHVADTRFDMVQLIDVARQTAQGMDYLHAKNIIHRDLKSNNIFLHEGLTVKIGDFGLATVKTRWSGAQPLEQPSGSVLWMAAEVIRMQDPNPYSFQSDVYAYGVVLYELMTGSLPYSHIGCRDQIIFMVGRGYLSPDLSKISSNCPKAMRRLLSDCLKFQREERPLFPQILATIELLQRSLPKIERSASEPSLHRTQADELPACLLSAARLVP
Chain of UniProt Q02763 (whole entry, looked up): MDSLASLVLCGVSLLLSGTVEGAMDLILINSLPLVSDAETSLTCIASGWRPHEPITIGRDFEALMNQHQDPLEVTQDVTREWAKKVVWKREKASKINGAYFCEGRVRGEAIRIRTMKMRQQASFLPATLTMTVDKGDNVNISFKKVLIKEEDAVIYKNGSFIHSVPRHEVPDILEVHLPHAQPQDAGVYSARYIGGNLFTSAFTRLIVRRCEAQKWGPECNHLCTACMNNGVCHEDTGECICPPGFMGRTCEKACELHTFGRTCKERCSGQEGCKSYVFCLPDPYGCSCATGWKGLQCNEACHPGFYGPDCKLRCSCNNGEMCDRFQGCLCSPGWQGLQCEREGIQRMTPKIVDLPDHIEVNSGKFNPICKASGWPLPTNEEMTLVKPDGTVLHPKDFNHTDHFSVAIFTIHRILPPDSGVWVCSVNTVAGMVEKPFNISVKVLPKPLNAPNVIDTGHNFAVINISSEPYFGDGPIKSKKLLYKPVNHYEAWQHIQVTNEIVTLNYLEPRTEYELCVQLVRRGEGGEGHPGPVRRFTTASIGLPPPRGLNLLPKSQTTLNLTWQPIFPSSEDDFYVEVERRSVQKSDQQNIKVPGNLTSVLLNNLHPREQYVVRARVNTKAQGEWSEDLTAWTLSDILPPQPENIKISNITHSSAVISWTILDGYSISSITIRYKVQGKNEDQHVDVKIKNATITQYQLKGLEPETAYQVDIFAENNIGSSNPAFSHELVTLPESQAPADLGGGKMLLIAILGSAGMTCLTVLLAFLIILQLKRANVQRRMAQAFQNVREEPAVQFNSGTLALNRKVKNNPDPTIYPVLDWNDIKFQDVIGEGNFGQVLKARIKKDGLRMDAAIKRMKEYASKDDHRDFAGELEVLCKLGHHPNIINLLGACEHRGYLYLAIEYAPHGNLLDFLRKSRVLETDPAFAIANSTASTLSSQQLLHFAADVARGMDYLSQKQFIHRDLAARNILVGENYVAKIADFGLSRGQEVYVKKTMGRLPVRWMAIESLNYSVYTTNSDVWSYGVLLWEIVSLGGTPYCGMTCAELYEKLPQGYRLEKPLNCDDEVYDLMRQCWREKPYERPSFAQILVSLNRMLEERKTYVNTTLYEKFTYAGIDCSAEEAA
Chain of UniProt P49841 (whole entry, looked up): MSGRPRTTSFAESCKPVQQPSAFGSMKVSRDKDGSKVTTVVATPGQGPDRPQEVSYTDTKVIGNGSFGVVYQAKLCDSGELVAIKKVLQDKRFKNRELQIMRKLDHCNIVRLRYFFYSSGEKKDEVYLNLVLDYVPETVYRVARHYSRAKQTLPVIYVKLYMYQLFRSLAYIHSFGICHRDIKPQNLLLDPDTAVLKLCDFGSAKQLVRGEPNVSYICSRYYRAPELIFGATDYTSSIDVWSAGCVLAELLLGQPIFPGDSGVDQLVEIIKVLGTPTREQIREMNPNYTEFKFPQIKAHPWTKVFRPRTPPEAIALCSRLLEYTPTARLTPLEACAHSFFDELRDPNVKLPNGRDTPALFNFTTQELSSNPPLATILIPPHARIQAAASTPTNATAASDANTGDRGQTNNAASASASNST

Block 1 — method: protein-binding microarray; form: double-stranded DNA, one strand shown; matrix: in vitro; tested at: 0.8 µM; setting: whole 60-bp probe, no competitor; direction: higher = stronger binding; measurement: fluorescence intensity
Target: Centromere-binding protein 1, full length, N-terminal tag (CBF1, Saccharomyces cerevisiae, UniProt P17106, residues 1-351)
Chain of UniProt P17106 (whole entry, looked up): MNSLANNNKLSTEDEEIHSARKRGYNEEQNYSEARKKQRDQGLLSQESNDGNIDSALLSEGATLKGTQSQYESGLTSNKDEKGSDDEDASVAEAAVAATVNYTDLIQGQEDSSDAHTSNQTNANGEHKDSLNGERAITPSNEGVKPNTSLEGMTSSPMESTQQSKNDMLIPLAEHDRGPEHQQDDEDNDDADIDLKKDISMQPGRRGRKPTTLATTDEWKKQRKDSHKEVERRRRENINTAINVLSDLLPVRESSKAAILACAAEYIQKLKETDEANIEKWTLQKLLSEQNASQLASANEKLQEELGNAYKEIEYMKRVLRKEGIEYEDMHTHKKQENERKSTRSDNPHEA
Strand = CCTAACTACTATATCACGTGTAAATAGCTTCGTACAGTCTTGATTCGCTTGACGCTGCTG; value = 8260 a.u.
Strand = CTAAGGATATTCAGTTGCGTGAAATCATGACGATTCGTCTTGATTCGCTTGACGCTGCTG; value = 526 a.u.
Strand = CTAATTATGCTGAAGTACGTGGTGACGGATATTTTCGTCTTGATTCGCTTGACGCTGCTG; value = 545 a.u.
Strand = TGTACGAAGCTATCGATCACCATTATAGTAGTTAGGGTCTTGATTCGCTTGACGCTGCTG; value = 508 a.u.
Strand = GAACACTAGCTTATATACGTGACTTCTGTGACTTAGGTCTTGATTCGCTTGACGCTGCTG; value = 695 a.u.
Strand = CTACGCATCCCCGTAAACGTGTTAAATATTACATTCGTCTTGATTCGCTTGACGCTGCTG; value = 624 a.u.
Strand = CTACCAATTAAGCACCACCTAGTGCGTCTAGTGTTCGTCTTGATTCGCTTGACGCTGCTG; value = 505 a.u.
Strand = GAAATAGTGAAAACCAACGTGAAGAAGCAAAAGTAGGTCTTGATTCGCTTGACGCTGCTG; value = 557 a.u.

Block 2 — read-out: enzyme activity; action: inhibitor; tested at: 0.5 µM; reference: control; measurement: remaining activity
Compound: FC(F)(F)c1ccc(/C=C/c2nc(COc3ccc(CCCCn4ccnn4)cc3)co2)cc1
target = LCK (Homo sapiens, UniProt P06239); value = 92.1%
target = MAP2K2 (Homo sapiens, UniProt P36507); value = 114%
target = WEE1 (Homo sapiens, UniProt P30291); value = 101%
target = TEK (Homo sapiens, UniProt Q02763); value = 95.8%
target = TAOK2 (Homo sapiens, UniProt Q9UL54); value = 105%
target = MST1R (Homo sapiens, UniProt Q04912); value = 104%
target = MAP3K5 (Homo sapiens, UniProt Q99683); value = 97.2%
target = GRK7 (Homo sapiens, UniProt Q8WTQ7); value = 97.8%
target = ACVR1B (Homo sapiens, UniProt P36896); value = 92.8%
target = MAP3K14 (Homo sapiens, UniProt Q99558); value = 95.8%
target = ARAF (Homo sapiens, UniProt P10398); value = 102%
target = JAK3 (Homo sapiens, UniProt P52333); value = 93%
target = GSK3B (Homo sapiens, UniProt P49841); value = 100%
target = TBK1 (Homo sapiens, UniProt Q9UHD2); value = 101%

Block 3 — cell line: HaCaT; tested at: 100 µM; time: 36 h; measurement: viability
SMILES = O=C(O)c1ccccc1Nc1cccc(C(F)(F)F)c1; value = 73.2%
SMILES = CN(C)c1ccc(C(=C2C=CC(=[N+](C)C)C=C2)c2ccc(N(C)C)cc2)cc1; value = 10.2%
SMILES = O=C(O)c1cc(=O)[nH]c(=O)[nH]1; value = 93.6%
SMILES = COc1cc(/C=C/C(=O)N2CCN(CC(=O)N3CCCC3)CC2)cc(OC)c1OC; value = 87.5%

Block 4 — read-out: cell-free assay; method: competition with immobilised ligand; tested at: 1 µM; measurement: remaining binding
SMILES: CS(=O)(=O)NCC[C@H](NC(=O)c1cncc2c1cnn2-c1ccc(F)cc1)c1ccnc(S(C)(=O)=O)c1
target = SRC (Homo sapiens, UniProt P12931); value = 96%
target = Receptor-type tyrosine-protein kinase FLT3, autoinhibited (FLT3, Homo sapiens, UniProt P36888); value = 100%
target = EPHA7 (Homo sapiens, UniProt Q15375); value = 82%
target = Ribosomal protein S6 kinase alpha-6, C-terminal kinase domain (RPS6KA6, Homo sapiens, UniProt Q9UK32); value = 100%
